Published values of several laboratories.
Each line is one published result; not all experiments were run side by side. Several values in a cell are separate wells, animals, samples, runs or records. ± gives the spread as reported.
CYP2D6: Cytochrome P450 2D6 (CYP2D6, Homo sapiens, UniProt P10635)
Chain of UniProt P00729 (whole entry, looked up): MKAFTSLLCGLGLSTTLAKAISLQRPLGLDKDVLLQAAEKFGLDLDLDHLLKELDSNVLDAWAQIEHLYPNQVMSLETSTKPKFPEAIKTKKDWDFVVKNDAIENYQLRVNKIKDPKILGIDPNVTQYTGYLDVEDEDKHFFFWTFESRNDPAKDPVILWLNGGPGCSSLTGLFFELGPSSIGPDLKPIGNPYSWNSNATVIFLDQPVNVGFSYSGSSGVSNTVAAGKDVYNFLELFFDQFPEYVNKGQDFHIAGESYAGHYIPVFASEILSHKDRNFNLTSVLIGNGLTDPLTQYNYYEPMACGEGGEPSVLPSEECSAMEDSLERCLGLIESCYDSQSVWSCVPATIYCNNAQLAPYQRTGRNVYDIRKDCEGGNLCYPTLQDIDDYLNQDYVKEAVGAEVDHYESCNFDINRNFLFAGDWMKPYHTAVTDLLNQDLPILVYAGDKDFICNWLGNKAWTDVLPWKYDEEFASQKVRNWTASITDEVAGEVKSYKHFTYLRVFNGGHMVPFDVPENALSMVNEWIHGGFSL
Chain of UniProt P20813 (whole entry, looked up): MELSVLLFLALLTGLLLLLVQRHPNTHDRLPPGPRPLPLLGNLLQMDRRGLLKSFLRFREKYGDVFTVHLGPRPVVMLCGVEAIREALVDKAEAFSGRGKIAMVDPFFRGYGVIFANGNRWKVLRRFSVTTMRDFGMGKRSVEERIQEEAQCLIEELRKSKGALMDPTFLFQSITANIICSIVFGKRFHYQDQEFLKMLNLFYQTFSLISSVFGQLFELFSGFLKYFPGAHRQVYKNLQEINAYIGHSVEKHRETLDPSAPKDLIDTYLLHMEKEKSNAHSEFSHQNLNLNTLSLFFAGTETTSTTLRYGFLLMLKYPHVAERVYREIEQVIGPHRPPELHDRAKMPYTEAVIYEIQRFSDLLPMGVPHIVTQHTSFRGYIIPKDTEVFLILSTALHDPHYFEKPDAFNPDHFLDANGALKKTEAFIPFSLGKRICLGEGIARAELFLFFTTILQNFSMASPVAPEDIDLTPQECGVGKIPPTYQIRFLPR
Chain of UniProt Q8TCC7 (whole entry, looked up): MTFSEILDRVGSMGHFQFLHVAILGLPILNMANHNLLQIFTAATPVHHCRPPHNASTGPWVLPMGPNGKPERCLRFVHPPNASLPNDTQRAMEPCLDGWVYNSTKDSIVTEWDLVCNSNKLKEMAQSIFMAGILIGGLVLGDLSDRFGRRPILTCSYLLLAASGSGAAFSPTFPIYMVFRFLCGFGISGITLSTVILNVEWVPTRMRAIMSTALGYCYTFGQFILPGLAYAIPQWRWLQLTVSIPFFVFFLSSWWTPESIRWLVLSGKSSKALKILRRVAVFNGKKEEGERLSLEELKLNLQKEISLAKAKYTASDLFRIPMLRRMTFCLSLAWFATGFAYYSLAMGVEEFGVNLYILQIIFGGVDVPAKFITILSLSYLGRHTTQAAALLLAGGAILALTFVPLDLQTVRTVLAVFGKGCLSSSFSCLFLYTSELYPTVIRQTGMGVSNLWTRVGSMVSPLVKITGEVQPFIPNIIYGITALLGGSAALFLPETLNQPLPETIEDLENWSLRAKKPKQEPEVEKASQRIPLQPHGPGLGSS
Chain of UniProt O95342 (whole entry, looked up): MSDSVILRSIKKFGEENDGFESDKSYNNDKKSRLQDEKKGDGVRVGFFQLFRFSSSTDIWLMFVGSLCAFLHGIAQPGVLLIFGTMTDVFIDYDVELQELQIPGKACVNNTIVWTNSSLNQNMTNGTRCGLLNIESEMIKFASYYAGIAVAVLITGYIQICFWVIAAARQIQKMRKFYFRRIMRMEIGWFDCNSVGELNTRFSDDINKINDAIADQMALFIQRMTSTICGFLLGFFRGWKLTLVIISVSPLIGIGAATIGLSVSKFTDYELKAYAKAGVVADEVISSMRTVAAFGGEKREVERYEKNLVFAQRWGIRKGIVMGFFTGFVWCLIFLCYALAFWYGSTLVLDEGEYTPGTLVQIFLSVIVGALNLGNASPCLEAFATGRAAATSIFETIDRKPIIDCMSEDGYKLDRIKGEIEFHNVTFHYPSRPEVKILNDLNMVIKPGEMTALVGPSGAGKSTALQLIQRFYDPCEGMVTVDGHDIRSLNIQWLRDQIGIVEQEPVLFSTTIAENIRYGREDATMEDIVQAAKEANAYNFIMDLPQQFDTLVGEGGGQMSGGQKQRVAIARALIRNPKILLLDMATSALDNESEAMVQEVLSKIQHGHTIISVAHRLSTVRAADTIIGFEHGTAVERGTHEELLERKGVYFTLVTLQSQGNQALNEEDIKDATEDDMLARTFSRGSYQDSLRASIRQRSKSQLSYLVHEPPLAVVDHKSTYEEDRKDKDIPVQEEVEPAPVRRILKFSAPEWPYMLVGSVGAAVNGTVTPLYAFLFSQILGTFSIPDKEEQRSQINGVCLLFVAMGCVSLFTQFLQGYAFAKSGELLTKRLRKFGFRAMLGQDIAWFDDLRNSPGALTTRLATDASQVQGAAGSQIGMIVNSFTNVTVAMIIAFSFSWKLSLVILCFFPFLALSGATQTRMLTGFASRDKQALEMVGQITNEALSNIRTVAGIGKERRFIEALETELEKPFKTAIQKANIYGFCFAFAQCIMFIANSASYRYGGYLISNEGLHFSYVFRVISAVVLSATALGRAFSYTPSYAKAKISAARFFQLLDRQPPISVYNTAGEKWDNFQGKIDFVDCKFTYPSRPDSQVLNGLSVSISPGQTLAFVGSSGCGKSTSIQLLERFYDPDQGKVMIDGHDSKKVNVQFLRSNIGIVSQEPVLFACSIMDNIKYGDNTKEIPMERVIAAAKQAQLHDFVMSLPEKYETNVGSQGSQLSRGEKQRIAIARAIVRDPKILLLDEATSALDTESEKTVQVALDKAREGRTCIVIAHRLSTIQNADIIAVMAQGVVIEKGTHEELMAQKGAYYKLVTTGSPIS
Chain of UniProt P00760 (whole entry, looked up): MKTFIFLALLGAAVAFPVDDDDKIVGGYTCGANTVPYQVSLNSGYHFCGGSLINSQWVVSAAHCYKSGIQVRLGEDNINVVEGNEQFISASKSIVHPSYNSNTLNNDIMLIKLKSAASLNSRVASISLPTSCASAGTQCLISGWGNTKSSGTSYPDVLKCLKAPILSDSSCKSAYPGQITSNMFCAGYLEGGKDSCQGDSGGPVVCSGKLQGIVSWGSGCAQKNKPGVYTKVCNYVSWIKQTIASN

Compound	target	test	test system	setting	how to read	endpoint	result
CC[C@H](C)[C@@H]1NC(=O)[C@H](CC(C)C)NC(=O)[C@@H](NC(=O)[C@H](CCC(N)=O)NC(=O)[C@H](CCCCN)NC(=O)[C@H](CC(N)=O)NC(=O)[C@H](Cc2ccc(O)cc2)NC(=O)[C@@H]2CCC(=O)NCC(=O)NCC(=O)NCC(=O)NCC(=O)N[C@@H](CCCNC(=N)N)C(=O)NCC(=O)N[C@@H](Cc3ccc(O)cc3)C(=O)N2)CSSC[C@@H](C(=O)O)NC(=O)[C@H](Cc2ccccc2)NC1=O	Carboxypeptidase Y (Saccharomyces cerevisiae, UniProt P00729)	substrate, LC-MS	–	20 h, room temperature	–	proteolytic stability	stable
CC(C)C[C@H](NC(=O)[C@H](CC(C)C)NC(=O)[C@H](CCCCN)NC(=O)[C@H](Cc1ccccc1)NC(=O)[C@@H](NC(=O)[C@H](CCCNC(=N)N)NC(=O)[C@@H](N)CCCCN)C(C)C)C(=O)N[C@@H](CCCCN)C(=O)N[C@@H](CCCNC(=N)N)C(=O)N[C@@H](Cc1ccc(O)cc1)C(=O)N[C@@H](Cc1c[nH]c2ccccc12)C(=O)N[C@@H](CCCNC(=N)N)C(=O)N[C@@H](CCC(N)=O)C(=O)N[C@@H](CC(C)C)C(=O)N[C@@H](CCCCN)C(=O)N[C@@H](CCCCN)C(=O)N1CCC[C@H]1C(=O)N[C@H](C(=O)N[C@@H](CCCNC(=N)N)C(=O)NCCOCCOCC(=O)O)C(C)C	Serine protease 1 (PRSS1, Bos taurus, UniProt P00760)	HPLC	–	1 mg/mL, 30 min, 37 °C, added: enzyme to peptide 50:1	–	intact peptide remaining	83 to 87%
CCCCCCCCCCCC(=O)C(C)C(=O)N1CCC[C@H]1C(=O)NC(C)(C)C(=O)NC(C)(C)C(=O)NC(C)(C)C(=O)N[C@](C)(CC)C(=O)NCCC(=O)N[C@@H](C)C(=O)N[C@](C)(CC)C(=O)N[C@@H](C)C(=O)N[C@@H](CC(C)C)C(=O)N[C@](C)(CC)C(=O)NCCC(=O)N[C@@H](C)C(=O)N[C@](C)(CC)C(=O)NCCC(=O)N[C@@H](C)C(=O)NC(C)(C)C(=O)NC(C)(C)C(=O)NC(C)(C)C(=O)N[C@@H](C)C(=O)N[C@@H](CC(=O)O)C(=O)O (stereo partly shown)	human neutrophil elastase	LC-MS	–	40 µM, 120 min, pH 7.5, 37 °C	baseline: 0 h	remaining intact peptide	64.9%
CC(=O)NCCCC[C@@H]1NC(=O)[C@H](Cc2c[nH]c3c(C)cccc23)NC(=O)[C@H]([C@@H](C)O)NC(=O)[C@H](CC(N)=O)NC(=O)[C@@H](NC(C)=O)C(C)(C)SSC(C)(C)[C@@H](C(=O)N[C@@H](Cc2ccc(OCCN)cc2)C(=O)N[C@@H](Cc2ccc3ccccc3c2)C(=O)NC2(C(=O)N[C@@H](CCC(=O)O)C(=O)N[C@@H](CC(N)=O)C(=O)N[C@@H](Cc3cccnc3)C(=O)N(C)CC(N)=O)CCOCC2)NC1=O	SLC22A8 (Homo sapiens, UniProt Q8TCC7)	substrate	MDCK-II overexpressing transporter	5 µM, 30 min	–	uptake rate	0.432 ± 0.063 pmol/mg/min
CCCCCn1ccc(C(=O)NC(C)(C)c2ccc(CNC(C)=O)cc2)n1	CYP3A4 human	RT-qPCR, item: CYP3A4 mRNA	HepaRG	concentration not given	baseline: positive control	CYP induction	< 10%
O=C(CN1C(=O)C2(CCN(C(=O)c3cnc4[nH]ncc4c3)CC2)c2c(Br)cccc21)NCC(F)(F)F	CYP2D6	enzyme activity, inhibitor	–	–	–	IC50	2 µM
O=C(O)c1ccc(-c2nc(-c3ccccc3Cl)c3sccn23)cc1	Nav1.5 sodium channel	radioligand binding	–	10 µM	baseline: control	specific binding	89.7% and 99.5%
Cc1cc(-c2ccc3ccccc3c2)nnc1NCCN1CCN(C)CC1	ABCB11 (Homo sapiens, UniProt O95342)	transporter uptake, inhibitor	–	10 µM	–	inhibition	23%
C[C@@H](c1ccc2nccn2c1)n1nnc2ncc(-c3cn[nH]c3)nc21	Cytochrome P450 2B6 (CYP2B6, Homo sapiens, UniProt P20813)	enzyme activity, inhibitor	human, liver microsomes	–	–	IC50	> 30 µM
CC(C)C[C@H](NC(=O)[C@H](C)NC(=O)CNC(=O)CCCCCN1C(=O)[C@@H]2[C@H](C1=O)[C@H]1C=C[C@@H]2C1)C(=O)N[C@H](C(=O)N1CCC[C@H]1C(=O)N[C@@H](CCCNC(=N)N)C(=O)NCC(=O)N[C@@H](C)C(=O)N[C@@H](CC(=O)O)C(=O)N[C@@H](CO)C(=O)NCC(=O)N[C@@H](CO)C(=O)NCC(N)=O)[C@@H](C)O	α-chymotrypsin	substrate, HPLC	DPBS	200 µM, 50 min, 37 °C, added: chymotrypsin 1.0 µM	–	cleavage	44%
O=C(CN1C(=O)C2(CCN(C(=O)c3cnc4[nH]ncc4c3)CC2)c2c(F)cccc21)NCC(F)(F)F	CYP2D6	enzyme activity, inhibitor	–	–	–	IC50	9.6 µM
CCN(CC)CCOc1ccc(-c2nnn(Cc3ccc(OC)cc3)c2N)cc1	CYP2D6	inhibitor	–	–	–	IC50	> 50 µM
CC(C)C[C@H](NC(=O)CNC(=O)[C@@H]1CCCN1C(=O)[C@@H](NC(=O)[C@@H](NC(=O)CCC(=O)O)C(C)C)C(C)C)C(=O)N[C@@H](CCCCN)C(=O)N1CCC[C@H]1C(=O)N[C@@H](Cc1ccccc1)C(=O)N[C@H](C(=O)N[C@@H](CCCCN)C(=O)NCC(=O)NCC(=O)N[C@@H](Cc1ccc(O)cc1)C(=O)NCC(=O)N[C@@H](CCCNC(=N)N)C(=O)N[C@@H](CCCCN)C(=O)N[C@@H](CCCCN)C(=O)N[C@@H](CCCNC(=N)N)C(=O)N[C@@H](CCCNC(=N)N)C(=O)N[C@@H](CCC(N)=O)C(=O)N[C@@H](CCCNC(=N)N)C(=O)N[C@@H](CCCNC(=N)N)C(=O)N[C@@H](CCCNC(=N)N)C(N)=O)C(C)C	trypsin (pig)	substrate, RP-HPLC	Tris buffer	2.5 mg/mL, 0.1667 h, pH 8.0, 37 °C	–	degradation	~30%

A few entries again:
Compound	target	test	test system	setting	how to read	endpoint	result
CCCCCCCCCCCC(=O)C(C)C(=O)N1CCC[C@H]1C(=O)NC(C)(C)C(=O)NC(C)(C)C(=O)NC(C)(C)C(=O)N[C@](C)(CC)C(=O)NCCC(=O)N[C@@H](C)C(=O)N[C@](C)(CC)C(=O)N[C@@H](C)C(=O)N[C@@H](CC(C)C)C(=O)N[C@](C)(CC)C(=O)NCCC(=O)N[C@@H](C)C(=O)N[C@](C)(CC)C(=O)NCCC(=O)N[C@@H](C)C(=O)NC(C)(C)C(=O)NC(C)(C)C(=O)NC(C)(C)C(=O)N[C@@H](C)C(=O)N[C@@H](CC(=O)O)C(=O)O (stereo partly shown)	human neutrophil elastase	LC-MS	–	40 µM, 120 min, pH 7.5, 37 °C	baseline: 0 h	remaining intact peptide	64.9%
CC(=O)NCCCC[C@@H]1NC(=O)[C@H](Cc2c[nH]c3c(C)cccc23)NC(=O)[C@H]([C@@H](C)O)NC(=O)[C@H](CC(N)=O)NC(=O)[C@@H](NC(C)=O)C(C)(C)SSC(C)(C)[C@@H](C(=O)N[C@@H](Cc2ccc(OCCN)cc2)C(=O)N[C@@H](Cc2ccc3ccccc3c2)C(=O)NC2(C(=O)N[C@@H](CCC(=O)O)C(=O)N[C@@H](CC(N)=O)C(=O)N[C@@H](Cc3cccnc3)C(=O)N(C)CC(N)=O)CCOCC2)NC1=O	SLC22A8 (Homo sapiens, UniProt Q8TCC7)	substrate	MDCK-II overexpressing transporter	5 µM, 30 min	–	uptake rate	0.432 ± 0.063 pmol/mg/min
